Experimental data pooled from the literature.
Compare with care: the assays were run in different laboratories.

Compound = C=CC(=O)Nc1cc(Nc2nccc(-c3cn(C)c4ccccc34)n2)c(OC)cc1N(C)CCN(C)C; test system = human patients, plasma; conditions = oral, arithmetic mean; endpoint = oral clearance; value = 16.4 L/h
Compound = OCc1cc(C(O)CNCCCCCCOCCCCc2ccccc2)ccc1O (stereo not drawn); test system = human; conditions = oral; endpoint = oral bioavailability; value = 12%
Compound = COc1cc(Nc2ncc(F)c(Nc3ccc4c(n3)NC(=O)C(C)(C)O4)n2)cc(OC)c1OC; test system = human; conditions = oral; endpoint = oral clearance; value = 12 L/h
Compound = O=C(NO)c1ccc(CN(c2cnccn2)c2cnccn2)cc1; test system = human patients, phase I; conditions = oral; endpoint = oral bioavailability; value = 15 to 50%
Compound = CC[C@H](C)[C@H](NC(=O)[C@H](Cc1ccccc1)NC(=O)[C@H](CCC(=O)O)NC(=O)[C@H](CCCCNC(=O)COCCOCCNC(=O)COCCOCCNC(=O)CC[C@H](NC(=O)CCCCCCCCCCCCCCCCC(=O)O)C(=O)O)NC(=O)[C@H](C)NC(=O)[C@H](C)NC(=O)[C@H](CCC(N)=O)NC(=O)CNC(=O)[C@H](CCC(=O)O)NC(=O)[C@H](CC(C)C)NC(=O)[C@H](Cc1ccc(O)cc1)NC(=O)[C@H](CO)NC(=O)[C@H](CO)NC(=O)[C@@H](NC(=O)[C@H](CC(=O)O)NC(=O)[C@H](CO)NC(=O)[C@@H](NC(=O)[C@H](Cc1ccccc1)NC(=O)[C@@H](NC(=O)CNC(=O)[C@H](CCC(=O)O)NC(=O)C(C)(C)NC(=O)[C@@H](N)Cc1cnc[nH]1)[C@@H](C)O)[C@@H](C)O)C(C)C)C(=O)N[C@@H](C)C(=O)N[C@@H](Cc1c[nH]c2ccccc12)C(=O)N[C@@H](CC(C)C)C(=O)N[C@H](C(=O)N[C@@H](CCCNC(=N)N)C(=O)NCC(=O)N[C@@H](CCCNC(=N)N)C(=O)NCC(=O)O)C(C)C; test system = human; conditions = oral, fasting 30 min post-dose, water up to 120 mL; endpoint = oral bioavailability; value = 0.795%
Compound = COc1cc(Nc2ncc3c(n2)-c2ccc(Cl)cc2C(c2c(F)cccc2OC)=NC3)ccc1C(=O)O; test system = human patients, plasma; conditions = oral, 40 mg, cycle 1 day 1, with: pembrolizumab; endpoint = oral clearance (CL/F); value = 8.9 L/h
Compound = CO[C@]1(C(=O)N[C@@H](C)c2ccc(-n3cc(F)cn3)nc2)CC[C@H](c2nc(C)cc(Nc3cc(C)[nH]n3)n2)CC1; test system = human, fasted, plasma; conditions = 200 mg; endpoint = oral bioavailability; value = 40 to 50%
Compound = CNC(=O)c1cc(Cl)c(OC(C)(C)C(=O)O)cc1OC[C@@H](O)CN1CCC2(CC1)Cc1cc(Cl)ccc1O2; test system = human; conditions = oral, single dose; endpoint = oral bioavailability; value = 1.5%
Compound = COC[C@H]1C[C@@H](c2ncc(-c3ccc4c(c3)COc3cc5c(ccc6nc([C@@H]7CC[C@H](C)N7C(=O)[C@@H](NC(=O)OC)C(C)C)[nH]c65)cc3-4)[nH]2)N(C(=O)[C@H](NC(=O)OC)c2ccccc2)C1; test system = human, plasma; conditions = oral, 150 mg; endpoint = oral clearance; value = 32 L/h

For quick reference, copied from above:
Compound = CC[C@H](C)[C@H](NC(=O)[C@H](Cc1ccccc1)NC(=O)[C@H](CCC(=O)O)NC(=O)[C@H](CCCCNC(=O)COCCOCCNC(=O)COCCOCCNC(=O)CC[C@H](NC(=O)CCCCCCCCCCCCCCCCC(=O)O)C(=O)O)NC(=O)[C@H](C)NC(=O)[C@H](C)NC(=O)[C@H](CCC(N)=O)NC(=O)CNC(=O)[C@H](CCC(=O)O)NC(=O)[C@H](CC(C)C)NC(=O)[C@H](Cc1ccc(O)cc1)NC(=O)[C@H](CO)NC(=O)[C@H](CO)NC(=O)[C@@H](NC(=O)[C@H](CC(=O)O)NC(=O)[C@H](CO)NC(=O)[C@@H](NC(=O)[C@H](Cc1ccccc1)NC(=O)[C@@H](NC(=O)CNC(=O)[C@H](CCC(=O)O)NC(=O)C(C)(C)NC(=O)[C@@H](N)Cc1cnc[nH]1)[C@@H](C)O)[C@@H](C)O)C(C)C)C(=O)N[C@@H](C)C(=O)N[C@@H](Cc1c[nH]c2ccccc12)C(=O)N[C@@H](CC(C)C)C(=O)N[C@H](C(=O)N[C@@H](CCCNC(=N)N)C(=O)NCC(=O)N[C@@H](CCCNC(=N)N)C(=O)NCC(=O)O)C(C)C; test system = human; conditions = oral, fasting 30 min post-dose, water up to 120 mL; endpoint = oral bioavailability; value = 0.795%
